Measurements from different studies.
Every numbered part comes from another study and shows a few of its results, in no order. Substitutions count along the parent as printed.

Set 1
Target: Histone acetyltransferase KAT6A, winged helix 2, GST fusion (KAT6A, Homo sapiens, UniProt Q92794, residues 85-181)
Method: protein binding microarray
Form: double-stranded DNA, one strand shown
Matrix: in vitro
Concentration: not given
Setting: 8-mer, flanks averaged, mean of 2 arrays, mostly near background
Relative to: not given
Direction: higher = stronger binding
Construct (chain): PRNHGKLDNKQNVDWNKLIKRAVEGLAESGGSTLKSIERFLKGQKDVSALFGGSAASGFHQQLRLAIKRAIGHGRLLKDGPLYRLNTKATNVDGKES
| Strand | E-score |
| --- | --- |
| CCCGACCG | 0.168 |
| GCCTCAGC | 0.0874 |
| AACAGGTC | -0.00632 |
| ATGCCGCG | 0.246 |
| CATCAAAG | 0.0498 |
| GAGGAGAC | -0.142 |
| CACGGTGC | 0.0908 |
| CCGGTTCC | 0.0517 |
| GCAAATGC | 0.09 |
| AGTTTGTC | 0.127 |
| AATTGCTA | -0.086 |
| GGGGATAA | -0.196 |
| TGTGTCAA | -0.0809 |
| GGTTCAAC | -0.0286 |
| CCCCCGTA | -0.0895 |
| ATGCTCTA | 0.0114 |
| AGGAACCA | 0.0874 |
| GGACGGCC | 0.147 |

Set 2
Target: Interferon regulatory factor 5, full length, phosphomimetic (IRF5, Homo sapiens, UniProt Q13568-2, residues 1-514, S451D/S453D/S456D/S462D)
Method: protein-binding microarray
Form: double-stranded DNA, one strand shown
Matrix: in vitro
Concentration: 940 nM top
Setting: 60-bp whole probe
With: salmon DNA 0.4 mg/ml
Relative to: random background probes
Direction: higher = stronger binding
All sequences stand within: GCCTAGCAC … GTCTTGATTCGCTTGACGCTGCTG
| Strand | fitted relative affinity [z-score] |
| --- | --- |
| TGGGCATTTTTTTTATCAATGTGCTAG | 0.583 |
| ACCAGTTTTCTTTTCATTACGTGCTAG | 2.2 |
| GACGGTTTCATTTCCCTGACGTGCTAG | 5.37 |
| GACGGTTTCGGTATAGGGACGTGCTAG | 13.3 |
| TGAGGTCTCGGACTGGGTTAGTGCTAG | 0.189 |
| ATATATATTATATATACACATGTGCTA | 0.42 |
| TTTTCATTATTGTCTCCCCCAGTGCTA | 2.25 |
| GACGTTTTCGGGTTTCGAGACGTGCTA | 2.86 |
| GACGATATCAGTCTCGACACGTGCTAG | 1.27 |
| GACGGGATCGGTCTCGGGACGTGCTAG | 0.63 |
| TTGGGTATCGGACTGGGTTAGTGCTAG | 2.93 |
| TTAGGACTGCTTATCCTGTAGTGCTAG | -0.208 |
| GAAGGACTGGGGTTTCGGGACGTGCTA | 1.37 |
| GACGAACTGGGGTTTCGATACGTGCTA | 5.02 |
| TTATGTATCCTACTGCTTTAGTGCTAG | 0.0676 |
| GACGGTCCCGGTATCGGGACGTGCTAG | 2.02 |
| TTTGGTATCGGGTTTCGGTTAGTGCTA | 10.3 |

Set 3
Target: CCNB3, cyclin fold, Cln2 fusion (human)
Method: yeast growth competition, sequencing
Matrix: yeast
Setting: weak parent motif
Relative to: not given
Direction: higher = stronger binding
Starting sequence: CDKN1B docking peptide (human); PSACRNLFGPVDH
| Variant | normalised enrichment score |
| --- | --- |
| V11E | 0.289 |
| V11Q | 0.338 |
| H13V | 0.438 |
| C4N | 0.526 |
| V11M | 0.248 |
| C4S | 0.408 |
| F8H | 0.322 |
| A3R | 0.307 |
| P1T | 0.46 |
| C4G | -0.0885 |
| P1R | 0.229 |
| H13K | 0.545 |
| L7V | 0.458 |
| P10V | 0.0438 |
| P1Q | 0.424 |
| R5Q | 0.237 |
| P10H | 0.184 |

Set 4
Target: RING finger protein unkempt homolog, zinc fingers 1-6, GST-SBP tag (UNK, Homo sapiens, UniProt Q9C0B0, residues 30-357)
Sequence of UniProt Q9C0B0 (30-357, looked up): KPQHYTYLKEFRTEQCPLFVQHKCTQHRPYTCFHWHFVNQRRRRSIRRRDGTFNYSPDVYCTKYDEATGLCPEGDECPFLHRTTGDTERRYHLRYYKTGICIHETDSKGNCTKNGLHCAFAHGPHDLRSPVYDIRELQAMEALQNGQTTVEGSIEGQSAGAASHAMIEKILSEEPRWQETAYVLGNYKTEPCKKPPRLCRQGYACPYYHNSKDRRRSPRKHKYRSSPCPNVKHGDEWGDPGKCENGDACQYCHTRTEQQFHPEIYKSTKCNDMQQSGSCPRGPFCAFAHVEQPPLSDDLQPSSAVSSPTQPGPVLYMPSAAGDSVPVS
Method: RNA Bind-n-Seq
Form: RNA
Matrix: in vitro
Concentration: not given
Setting: RNA with constant flanks, human and mouse sites, ends assumed
Relative to: input RNA pool
Direction: higher = stronger binding
All sequences stand within: GGGAGUUCUACAGUCCGACGAUC … CAACAGAGGAUUGAGCAUCA
| Strand | bound/input enrichment |
| --- | --- |
| AUUUCCAGUUGUCUGAGGUGGCCAGGACAUUACUCCCGUGCGCCUUACCCAUACUUCAGUAGCAGGCAUUUCUCAUUGAACUGUAGACCACCUUUUCUGUUUGAGUCUGGAACGCAGUUU | 0.253 ratio |
| GUGAGAGGCGAGAAGGAGGCUCUAGACCUGCGAAAGGAAAAAGAAACCCUUGAGAGGAAACUUAGAGAUGCAAGUAAGGAAUUGGAGAAAAACACUAACAAAAUUAAGCAGCUGUCUCAG | 0.658 ratio |
| AGGAGUGAUGUAAUGGAGCUCCUUAAGAAGUCGGCCGAGGAAAGAAAACCUUAAAGGGACACUAGUGUGAUGCUUUGUCUUAAUGUGGGUUUUUCUGUUUCAGUUUGCCACCUCCAGAUG | 0.132 ratio |
| UUUGUUUGUAACUUAUCUGUAAAAGGUUCCCCCCCCCUACUGUCAAAAAAUAUGCAUGUAUAGUAAUUAGGACUUCAUUCCUCCAUGUUUUCUUCCCUUAUCUUACUGUCAUUGUCCUUA | 2.48 ratio |
| AGCAGGUUUGUGGUGAUUAUUUACUGUCUAGAAUGGAUGUUACCAGCUGCAUCUCUUACCGAAAUUUUGCAAGUUGUAUGGGAGACUCCCGUUUGUUGAAUAAGGUUGAUGCUUAUAUUC | 0.46 ratio |
| CUACAUCCCUGGCUGCCGCUGCUGUUACUUCAGGAUGAAAGGGGAGACCCCCGUUAACAGCACUAUGAGUAUUGGUCAAGCACGCAAGAUGGUGGAACAGCUUAAGAUUGAGGCCAGCUU | 0.178 ratio |
| GUUAUUUGAUUUAUUUAAAGGCUAAAAUUUGUUUUUUUAUUCUUUGCACAAUUGUUUCAUUGUUUGACACUUAAUGCACUCGUCAUUUGCAUACGACAGUAGCAUUCUGACCACACUUGU | 1.08 ratio |
| GACCCACAGUGGUCUGAGGAACAGCUGAUUGCUGCAAAAUUUUGCUUUGCUGGACUUCUUAUAGGCCAGACUGAAGUGGAUAUCAUGAGUCAUGCUACACAGGCUAUAUUUGAAAUACUG | 0.18 ratio |
